{"data": "Assay results of several laboratories", "note": "Protocols differ between the studies behind these lines. ± gives the spread as reported."}
{"SMILES": "CCCC[C@H](NC(=O)CCCCCCCNC(=O)c1ccc(NN)nc1)C(=O)N[C@H]1CC(=O)NCCCC[C@@H](C(N)=O)NC(=O)[C@H](Cc2c[nH]c3ccccc23)NC(=O)[C@H](CCCNC(=N)N)NC(=O)[C@@H](Cc2ccccc2)NC(=O)[C@H](Cc2c[nH]cn2)NC1=O [technetium-99m labelled]", "test system": "C57 mice, B16/F1 melanoma, intestines", "conditions": "concentration not given, 2 h, with: 6.07 nmol NDP-MSH", "quantity": "biodistribution", "result": "1.85 ± 0.42 %ID"}
{"SMILES": "CC(C)C[C@H](NC(=O)C[C@H](O)[C@H](CC(C)C)NC(=O)[C@H](Cc1c[nH]cn1)NC(=O)CNC(=O)[C@@H](NC(=O)[C@H](C)NC(=O)[C@H](Cc1c[nH]c2ccccc12)NC(=O)[C@H](CCC(N)=O)NC(=O)[C@@H](Cc1ccccc1)NC(=O)c1ccc(NC(=O)CNC(=O)CCC(C(=O)O)N2CCN(CC(=O)O)CCN(CC(=O)O)CC2)cc1)C(C)C)C(N)=O (stereo partly shown) [fluorine-18 labelled]", "test": "PET imaging", "test system": "mouse, PC-3 xenograft", "conditions": "intravenous, 2 h, blocking, with: AMBA 10 mg/kg", "quantity": "tumour uptake", "result": "0.93 ± 0.14 %ID/g"}
{"SMILES": "N=C(N)NCCC[C@@H]1NC(=O)[C@H](CC(=O)NC23CNCCNCC(N)(CNCCNC2)CNCCNC3)NC(=O)[C@@H](Cc2ccccc2)NC(=O)[C@H](CC(=O)O)NC(=O)CNC1=O [copper-64 labelled]", "test system": "Nu/Nu mouse, male, tumour-bearing, heart", "conditions": "intravenous, 10 µCi, 1 h", "quantity": "tissue uptake", "result": "0.56 ± 0.09 %ID/g"}
{"SMILES": "N=C(N)NCCC[C@@H]1NC(=O)[C@H](CCCCNC(=O)CCOCCOCCOCCOCCNC(=O)CC[C@H](NC(=O)CCOCCOCCOCCOCCNC(=O)CC[C@H](NC(=O)CN2CCN(CC(=O)O)CCN(CC(=O)O)CCN(CC(=O)O)CC2)C(=O)NCCOCCOCCOCCOCCC(=O)N[C@@H](CCC(=O)NCCOCCOCCOCCOCCC(=O)NCCCC[C@@H]2NC(=O)[C@@H](Cc3ccccc3)NC(=O)[C@H](CC(=O)O)NC(=O)CNC(=O)[C@H](CCCNC(=N)N)NC2=O)C(=O)NCCOCCOCCOCCOCCC(=O)NCCCC[C@@H]2NC(=O)[C@@H](Cc3ccccc3)NC(=O)[C@H](CC(=O)O)NC(=O)CNC(=O)[C@H](CCCNC(=N)N)NC2=O)C(=O)NCCOCCOCCOCCOCCC(=O)NCCCC[C@@H]2NC(=O)[C@@H](Cc3ccccc3)NC(=O)[C@H](CC(=O)O)NC(=O)CNC(=O)[C@H](CCCNC(=N)N)NC2=O)NC(=O)[C@@H](Cc2ccccc2)NC(=O)[C@H](CC(=O)O)NC(=O)CNC1=O [indium-111 labelled]", "test system": "athymic nude mice, female, U-87 MG glioma xenograft, tumour and blood", "conditions": "intravenous, 0.5 h", "how to read": "reference: tumour over blood", "quantity": "tumour to tissue ratio", "result": "11.3 ± 1.71"}
{"SMILES": "CSCC[C@H](NC(=O)[C@H](CC(C)C)NC(=O)[C@H](Cc1c[nH]cn1)NC(=O)CNC(=O)[C@@H](NC(=O)[C@H](C)NC(=O)[C@H](Cc1c[nH]c2ccccc12)NC(=O)[C@H](CCC(N)=O)NC(=O)CCCCNC(=O)CSCCSCCP(CO)CO)C(C)C)C(N)=O [technetium-99m labelled]", "test system": "female CF-1 mouse, urine", "conditions": "intravenous, dose not given, 24 h", "quantity": "urinary excretion", "result": "38%"}
{"SMILES": "CSCC[C@H](NC(=O)[C@H](CC(C)C)NC(=O)[C@H](Cc1c[nH]cn1)NC(=O)CNC(=O)[C@@H](NC(=O)[C@H](C)NC(=O)[C@H](Cc1c[nH]c2ccccc12)NC(=O)[C@H](CCC(N)=O)NC(=O)CCCCCNC(=O)CNC(=O)CNC(=O)CNC(=O)CSC(C)=O)C(C)C)C(N)=O [technetium-99m labelled]", "test system": "Swiss mouse, spleen", "conditions": "intravenous, 18.5 MBq, 5 min", "quantity": "tissue uptake", "result": "1.45 ± 0.24 %ID/g"}
{"SMILES": "N=C(N)NCCC[C@@H]1NC(=O)[C@H](CCCCNC(=O)CNC(=O)CNC(=O)CNC(=O)CC[C@H](NC(=O)CCOCCOCCOCCOCCNC(=O)CC[C@H](NC(=O)CN2CCN(CC(=O)O)CCN(CC(=O)O)CCN(CC(=O)O)CC2)C(=O)NCCOCCOCCOCCOCCC(=O)N[C@@H](CCC(=O)NCC(=O)NCC(=O)NCC(=O)NCCCC[C@@H]2NC(=O)[C@@H](Cc3ccccc3)NC(=O)[C@H](CC(=O)O)NC(=O)CNC(=O)[C@H](CCCNC(=N)N)NC2=O)C(=O)NCC(=O)NCC(=O)NCC(=O)NCCCC[C@@H]2NC(=O)[C@@H](Cc3ccccc3)NC(=O)[C@H](CC(=O)O)NC(=O)CNC(=O)[C@H](CCCNC(=N)N)NC2=O)C(=O)NCC(=O)NCC(=O)NCC(=O)NCCCC[C@@H]2NC(=O)[C@@H](Cc3ccccc3)NC(=O)[C@H](CC(=O)O)NC(=O)CNC(=O)[C@H](CCCNC(=N)N)NC2=O)NC(=O)[C@@H](Cc2ccccc2)NC(=O)[C@H](CC(=O)O)NC(=O)CNC1=O [indium-111 labelled]", "test system": "female athymic nude mouse", "conditions": "intravenous, 3 µCi, 24 h, U-87 MG glioma xenograft", "how to read": "reference: tumour over muscle", "quantity": "tumour to muscle ratio", "result": "24 ± 14.2"}
{"SMILES": "C[C@@H](O)[C@H](NC(=O)[C@@H]1CSSC[C@H](NC(=O)[C@@H](Cc2ccccc2)NC(=O)CN2CCCN3CCN(CCCN(CP(=O)(O)O)CC3)CC2)C(=O)N[C@@H](Cc2ccc(O)cc2)C(=O)N[C@H](Cc2c[nH]c3ccccc23)C(=O)N[C@@H](CCCCN)C(=O)N[C@@H]([C@@H](C)O)C(=O)N1)C(=O)O [copper-64 labelled]", "test system": "male Lewis rat, pituitary", "conditions": "4 h, with: Y3-TATE 200 µg", "quantity": "tissue uptake", "result": "0.3 ± 0.07 %ID/g"}
{"SMILES": "N=C(N)NCCC[C@@H]1NC(=O)[C@H](CCCCNC(=O)CC[C@H](NC(=O)CCOCCOCCOCCOCCNC(=O)CC[C@H](NC(=O)CN2CCN(CC(=O)O)CCN(CC(=O)O)CCN(CC(=O)O)CC2)C(=O)NCCOCCOCCOCCOCCC(=O)N[C@@H](CCC(=O)NCCCC[C@@H]2NC(=O)[C@@H](Cc3ccccc3)NC(=O)[C@H](CC(=O)O)NC(=O)CNC(=O)[C@H](CCCNC(=N)N)NC2=O)C(=O)NCCCC[C@@H]2NC(=O)[C@@H](Cc3ccccc3)NC(=O)[C@H](CC(=O)O)NC(=O)CNC(=O)[C@H](CCCNC(=N)N)NC2=O)C(=O)NCCCC[C@@H]2NC(=O)[C@@H](Cc3ccccc3)NC(=O)[C@H](CC(=O)O)NC(=O)CNC(=O)[C@H](CCCNC(=N)N)NC2=O)NC(=O)[C@@H](Cc2ccccc2)NC(=O)[C@H](CC(=O)O)NC(=O)CNC1=O [indium-111 labelled]", "test system": "athymic nude mice, female, U-87 MG glioma xenograft, tumour and blood", "conditions": "intravenous, 24 h", "how to read": "reference: tumour over blood", "quantity": "tumour to tissue ratio", "result": "231 ± 137"}
{"SMILES": "CCCC[C@H](NC(=O)CNC(=O)CNC(=O)c1ccc(NN)nc1)C(=O)N[C@H]1CC(=O)NCCCC[C@@H](C(N)=O)NC(=O)[C@H](Cc2c[nH]c3ccccc23)NC(=O)[C@H](CCCNC(=N)N)NC(=O)[C@@H](Cc2ccccc2)NC(=O)[C@H](Cc2c[nH]cn2)NC1=O [technetium-99m labelled]", "test system": "C57 mouse, B16/F1 melanoma, skin", "conditions": "2 h, with: L-lysine 12 mg", "quantity": "uptake", "result": "0.23 ± 0.03 %ID/g"}
{"SMILES": "Cc1ncsc1-c1ccc(CNC(=O)[C@@H]2C[C@@H](OC(=O)OCCSSCCn3cc(CCCC(=O)N[C@@H](Cc4ccc(O)cc4)C(=O)N[C@@H](CCCNC(=N)N)C(=O)N[C@@H](CCCNC(=N)N)C(=O)N[C@@H](CCCNC(=N)N)C(=O)N[C@@H](CCCNC(=N)N)C(=O)N[C@@H](CCCNC(=N)N)C(=O)N[C@@H](CCCNC(=N)N)C(=O)N[C@@H](CCCNC(=N)N)C(=O)N[C@@H](CCCNC(=N)N)C(=O)N[C@@H](CCCNC(=N)N)C(N)=O)nn3)CN2C(=O)[C@@H](NC(=O)COCCOCCOCCNC(=O)C[C@@H]2N=C(c3ccc(Cl)cc3)c3c(sc(C)c3C)-n3c(C)nnc32)C(C)(C)C)cc1", "test": "UHPLC", "test system": "PBS", "conditions": "100 nM, 2 h, 37 °C, with: 5 mM glutathione", "how to read": "reference: total peak area", "quantity": "released payload", "result": "100%"}
{"SMILES": "N=C(N)NCCC[C@@H]1NC(=O)[C@H](CCCCNC(=O)CCOCCOCCOCCOCCNC(=O)CN2CCN(CC(=O)O)CCN(CC(=O)O)CCN(CC(=O)O)CC2)NC(=O)[C@@H](Cc2ccccc2)NC(=O)[C@H](CC(=O)O)NC(=O)CNC1=O [indium-111 labelled]", "test system": "athymic nude mice, female, U-87 MG glioma xenograft, tumour and brain", "conditions": "intravenous, 0.5 h", "how to read": "reference: tumour over brain", "quantity": "tumour to tissue ratio", "result": "13.8 ± 1.72"}
{"SMILES": "CC(C)C[C@@H]1NC(=O)[C@H](C(C)C)NC(=O)[C@H](CO)NC(=O)CNC(=O)CNC(=O)[C@H](CCCNC(=N)N)NC(=O)[C@@H]2CCCN2C(=O)[C@@H](NC(=O)CC[C@H](NC(=O)c2ccc(N(C)Cc3cnc4nc(N)nc(N)c4n3)cc2)C(=O)O)C(C)(C)SSC[C@@H](C(=O)O)NC(=O)CNC(=O)[C@H]([C@@H](C)O)NC(=O)[C@H](C(C)C)NC1=O", "test": "pH-rate profile inflection", "conditions": "70 °C", "quantity": "pKa amino group", "result": 8.9}
{"note": "Some of these lines once more:"}
{"SMILES": "Cc1ncsc1-c1ccc(CNC(=O)[C@@H]2C[C@@H](OC(=O)OCCSSCCn3cc(CCCC(=O)N[C@@H](Cc4ccc(O)cc4)C(=O)N[C@@H](CCCNC(=N)N)C(=O)N[C@@H](CCCNC(=N)N)C(=O)N[C@@H](CCCNC(=N)N)C(=O)N[C@@H](CCCNC(=N)N)C(=O)N[C@@H](CCCNC(=N)N)C(=O)N[C@@H](CCCNC(=N)N)C(=O)N[C@@H](CCCNC(=N)N)C(=O)N[C@@H](CCCNC(=N)N)C(=O)N[C@@H](CCCNC(=N)N)C(N)=O)nn3)CN2C(=O)[C@@H](NC(=O)COCCOCCOCCNC(=O)C[C@@H]2N=C(c3ccc(Cl)cc3)c3c(sc(C)c3C)-n3c(C)nnc32)C(C)(C)C)cc1", "test": "UHPLC", "test system": "PBS", "conditions": "100 nM, 2 h, 37 °C, with: 5 mM glutathione", "how to read": "reference: total peak area", "quantity": "released payload", "result": "100%"}
